Experimental data of several laboratories.
Parts stem from different laboratories: compare values within a part only. Positions count from the first letter of the parent shown.

Study 1
Substance: PhoQ, residues 284 288 289 292 302 303 QWGLFV
Technique: Sort-seq
Item: YFP reporter
Sample: E. coli
Notes: PhoQ-PhoP variant library
Together with: 10 µM Mg2+
Reference: high Mg2+ state
Direction: higher = stronger signaling
target | fold induction
PhoP, residues 12 14 15 18 19 SHWTV (Escherichia coli, UniProt P23836) | 1.64
PhoP, residues 12 14 15 18 19 QYCSL (Escherichia coli, UniProt P23836) | 9.48
PhoP, residues 12 14 15 18 19 STHWV (Escherichia coli, UniProt P23836) | 9.22

Study 2
Target: Interferon regulatory factor 7, full length, phosphomimetic (IRF7, Homo sapiens, UniProt Q92985, residues 1-503, S471D/S472D/S475D/S476D/S477D/S483D/S484D/S487D)
Sequence of UniProt Q92985 (whole entry, unmodified, looked up): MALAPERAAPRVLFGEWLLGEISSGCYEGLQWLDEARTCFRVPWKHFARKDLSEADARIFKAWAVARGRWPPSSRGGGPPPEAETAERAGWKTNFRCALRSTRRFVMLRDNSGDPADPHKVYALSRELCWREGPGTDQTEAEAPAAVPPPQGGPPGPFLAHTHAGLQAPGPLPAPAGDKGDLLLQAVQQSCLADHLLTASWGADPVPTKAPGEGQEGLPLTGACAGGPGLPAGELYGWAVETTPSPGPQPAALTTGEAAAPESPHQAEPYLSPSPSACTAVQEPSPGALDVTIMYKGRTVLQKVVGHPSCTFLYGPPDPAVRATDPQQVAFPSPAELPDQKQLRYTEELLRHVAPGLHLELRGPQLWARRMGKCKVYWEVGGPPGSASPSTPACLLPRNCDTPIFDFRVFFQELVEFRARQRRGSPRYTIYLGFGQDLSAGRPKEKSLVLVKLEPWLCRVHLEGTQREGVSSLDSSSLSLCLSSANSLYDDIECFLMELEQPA
Technique: protein-binding microarray
Form: double-stranded DNA, one strand shown
Sample: in vitro
Tested at: 2200 nM top
Notes: 60-bp whole probe
Together with: salmon DNA 0.4 mg/ml
Reference: random background probes
Direction: higher = stronger binding
Shared flanks, not repeated: GCCTAGCAC … GTCTTGATTCGCTTGACGCTGCTG
Sequence | fitted relative affinity [z-score]
TCATCTTTCTAATTCAAACTGTGCTAG | 2.37
TACTTTCTATCTCTGTTTTTGTGCTAG | 7.47
TTAGGTTTCCATCTCCTTTAGTGCTAG | 3.09
TTTGGACTGGGTTTCGGTTAGTGCTAG | 4.13
CCCTTATTCTAGCCTCCATTTGTGCTA | 1.67
GACGATTTCCTTCTCCTGACGTGCTAG | 2.17
GACGGTATCGGCTTTCGGGACGTGCTA | 1.39
GAATGTCTTCCCCTCTCTTTGTGCTAG | 2.16
TCACCACTCTTTCCTCACACTGTGCTA | 2.11
TCAGATTTTGTCCTCCCACTGTGCTAG | 1.27

Study 3
Target: ABI1, truncated, D143A, DHFR fusion (Arabidopsis thaliana)
Technique: DHFR PCA, deep sequencing
Sample: yeast
Notes: methotrexate growth selection, single substitutions
Together with: (+)-ABA 0.032 µM
Reference: wild-type fitted maximum
Direction: higher = stronger binding
Parent: PYL1, truncated, DHFR fusion (Arabidopsis thaliana); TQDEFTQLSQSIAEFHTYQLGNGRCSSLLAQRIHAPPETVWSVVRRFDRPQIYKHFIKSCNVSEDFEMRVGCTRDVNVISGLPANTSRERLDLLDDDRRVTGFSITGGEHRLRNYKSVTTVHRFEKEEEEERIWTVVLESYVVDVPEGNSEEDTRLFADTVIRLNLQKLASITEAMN
Variant | relative binding score [%]
D3P | 7.92
S27T | 7.33
F124K | 3.21
V145E | -10.2
P50L | -1.13
Q10R | 21

Study 4
Target: CCNB1, cyclin fold, Cln2 fusion (human)
Technique: yeast growth competition, sequencing
Sample: yeast
Notes: weak parent motif
Reference: not given
Direction: higher = stronger binding
Parent: CDC25A docking peptide (human); PPHRRRLLFACSP
Variant | normalised enrichment score
PPHRRRQLFACSP [L7Q] | 0.258
PPHRRRLLFACSS [P13S] | 0.573
PPHRARLLFACSP [R5A] | 0.936
PPHERRLLFACSP [R4E] | -0.0489
PPHRRRLLFAVSP [C11V] | 0.687
PPHRRRLEFACSP [L8E] | 0.404
PPHRRRLGFACSP [L8G] | 0.48
PPHWRRLLFACSP [R4W] | 0.621
PPHRRILLFACSP [R6I] | -0.117
